Experimental data from different studies.
Compare with care: the assays were run in different laboratories. ± marks the error that the study gave.

SMILES	organism	test	test system	setting	IC50
COc1ccc(/C=N/N=C/c2ccc([N+](=O)[O-])s2)cc1	Trypanosoma congolense	parasite growth, CellTiter-Glo	IL3000 bloodstream form	72 h, 33 °C	0.22 ± 0.04 µM
CCCCCCCCCCCCCCCCC1CC(=O)NCCCN(C)CCCCN(C)CCCN1C (stereo not drawn)	Mycobacterium intracellulare	microbial growth, resazurin	ATCC23068	–	1.5 µg/mL
COc1ccccc1NC(=O)OC1C(C)C(OC)C=COC2(C)Oc3c(C)c(O)c4c(c3C2=O)C2=NC3(CCN(CC(C)C)CC3)NC2=C(NC(=O)C(C)=CC=CC(C)C(O)C(C)C(O)C1C)C4=O (stereo not drawn)	Mycobacteroides abscessus	–	ATCC 19977	50% human serum	0.15 µM
COc1ccc(/C=N/N=C/c2ccc([N+](=O)[O-])o2)cc1	Trypanosoma congolense	parasite growth, CellTiter-Glo	IL3000 bloodstream form	72 h, 33 °C	0.22 ± 0.08 µM
CC1=CCC(C)(C)C=CCC2(C)OC3=C(CC2CC1)C(=O)C(=C(O)C=Cc1ccccc1)C(=O)C3(C)C (stereo not drawn)	human respiratory syncytial virus	viral replication, CPE reduction	HEp-2, A2	–	13.1 ± 1.23 µM
CSCC(CO)NCc1c[nH]c2c(N)ncnc12 (stereo not drawn)	Campylobacter jejuni	colony formation	–	144 h, Mueller-Hinton agar	135 ± 2.8 µM
O=[N+]([O-])c1ccc(/C=N/N=C/c2ccc(OCc3ccccc3)cc2)o1	Trypanosoma congolense	parasite growth, CellTiter-Glo	IL3000 bloodstream form	72 h, 33 °C	0.03 ± 0.01 µM
COc1ccc(N2C(=O)CSC2c2cccc(Br)c2)c(OC)c1 (stereo not drawn)	Listeria	Listeria comet tail motility, inhibitor	SK-OV-3	–	7 µM
C[n+]1ccc(/C=C/c2ccc(O)c(O)c2)c2ccccc21	Streptococcus mutans	biofilm formation, crystal violet	–	–	104 µM
CCCCCCSC[C@H]1CN(Cc2c[nH]c3c(N)ncnc23)C[C@@H]1O	Campylobacter jejuni	cell growth	Mueller-Hinton broth	16.4 h	1.3 ± 0.3 µM
Cc1[nH]c2ccccc2c1CCNC(=O)c1cccs1	Listeria	Listeria comet tail motility, inhibitor	SK-OV-3	–	22 µM
C=C1CCC2Cc3c(O)c(C(=O)C=Cc4ccccc4)c(OC)c(C)c3OC2(C)CCC2C1CC2(C)C (stereo not drawn)	human respiratory syncytial virus	viral replication, CPE reduction	HEp-2, A2	–	50 µM
O=[N+]([O-])c1ccc(/C=N/N=C/c2ccc(Br)cc2)o1	Trypanosoma brucei rhodesiense	parasite growth, CellTiter-Glo	IL1501 bloodstream form	72 h	0.86 ± 0.23 µM
Cc1ccc2c(c1)C(C(C)C)CCC21CCC2=C(O1)C(C)(C)C(=O)C(=C(O)C=Cc1ccccc1)C2=O (stereo not drawn)	human respiratory syncytial virus	viral replication, CPE reduction	HEp-2, A2	–	12.6 ± 0.92 µM
CCN(CC)CC#CCNc1ccnc2cc(Cl)ccc12	Plasmodium falciparum	parasite growth, LDH	–	–	0.079 µM
C=C1CC[C@H]2Cc3c(c(C)c(O)c(C(=O)/C=C/c4ccccc4)c3OC)O[C@]2(C)CC[C@@H]2[C@@H]1CC2(C)C	human respiratory syncytial virus	viral replication, CPE reduction	HEp-2, A2	–	50 µM
COC1C=COC2(C)Oc3c(C)c(O)c4c(c3C2=O)C2=NC3(CCN(CC(C)C)CC3)NC2=C(NC(=O)C(C)=CC=CC(C)C(O)C(C)C(O)C(C)C(OC(=O)c2cccnc2)C1C)C4=O (stereo not drawn)	Mycobacteroides abscessus	–	ATCC 19977	1:1 CAMHB:human serum	0.15 µM
COc1c(C)c(O)c(C)c(O)c1C(=O)C1C(CC=C(C)C=O)C(C)=CCC1c1ccccc1 (stereo not drawn)	human respiratory syncytial virus	viral replication, CPE reduction	HEp-2, A2	–	50 µM
O=[N+]([O-])c1ccc(/C=N/N=C/c2ccc(F)cc2)o1	Trypanosoma congolense	parasite growth, CellTiter-Glo	IL3000 bloodstream form	72 h, 33 °C	0.18 ± 0.07 µM
COc1ccc(/C=C/c2cc(O)cc(O[C@@H]3O[C@H](CO)[C@@H](O)[C@H](O)[C@H]3O)c2)cc1O	Streptococcus mutans	biofilm formation, crystal violet	–	–	106 µM
O=[N+]([O-])c1ccc(/C=N/N=C/c2ccc(O)cc2)o1	Trypanosoma brucei rhodesiense	parasite growth, CellTiter-Glo	IL1501 bloodstream form	72 h	4.81 ± 1.1 µM
CC(C)=CCC1CC(=O)C(C)=CC2C=C(C)CC(c3ccccc3)C2C(=O)C2=C(O)C(C)(CC=C1C)C(=O)C(C)(C)C2=O (stereo not drawn)	human respiratory syncytial virus	viral replication, CPE reduction	HEp-2, A2	–	1.71 ± 0.61 µM
Nc1ncnc2c(CN3C[C@H](CSc4cnccn4)[C@@H](O)C3)c[nH]c12	Campylobacter jejuni	colony formation	–	144 h, Mueller-Hinton agar	3 ± 0.7 µM
C=C1CC[C@@H]2CC3=C(O[C@@]2(C)CC[C@@H]2[C@@H]1CC2(C)C)C(C)(C)C(=O)/C(=C(O)\C=C\c1ccccc1)C3=O	human respiratory syncytial virus	viral replication, CPE reduction	HEp-2, A2	–	24.7 ± 1.74 µM
COC1C=COC2(C)Oc3c(C)c(O)c4c(c3C2=O)C2=NC3(CCN(CC(C)C)CC3)NC2=C(NC(=O)C(C)=CC=CC(C)C(O)C(C)C(O)C(C)C(OC(=O)c2cncnc2)C1C)C4=O (stereo not drawn)	Mycobacteroides abscessus	–	ATCC 19977	50% human serum	0.048 µM
CC1=C(OC2CC3CCC2(C)C3(C)C)C(C)(C)C(=O)C(=C(O)C=Cc2ccccc2)C1=O (stereo not drawn)	human respiratory syncytial virus	viral replication, CPE reduction	HEp-2, A2	–	3.13 ± 0.69 µM
CCCCCC1CC2CCCC3CC(C)N=C(N1)N32 (stereo not drawn)	Mycobacterium intracellulare	microbial growth	ATCC23068	–	6.73 µM

A few entries again:
SMILES	organism	test	test system	setting	IC50
O=[N+]([O-])c1ccc(/C=N/N=C/c2ccc(OCc3ccccc3)cc2)o1	Trypanosoma congolense	parasite growth, CellTiter-Glo	IL3000 bloodstream form	72 h, 33 °C	0.03 ± 0.01 µM
COc1ccc(N2C(=O)CSC2c2cccc(Br)c2)c(OC)c1 (stereo not drawn)	Listeria	Listeria comet tail motility, inhibitor	SK-OV-3	–	7 µM
C[n+]1ccc(/C=C/c2ccc(O)c(O)c2)c2ccccc21	Streptococcus mutans	biofilm formation, crystal violet	–	–	104 µM
